# Results of several laboratories.
# Protocols differ between the studies behind these lines. ± marks the error that the study gave.
SMILES,assay,test system,setting,AUC
CNCCCC1(c2ccc(F)cc2)OCc2cc(C#N)ccc21 (stereo not shown),,"CD-1 mouse, pregnant female, gestation day 14, maternal serum","intraperitoneal, 20 mg/kg citalopram, single dose",418 ± 52.5 ng·h/mL
O=C(N[C@@H](Cn1ccnc1)c1ccc(Cl)cc1Cl)c1ccc(-c2nnc(-c3ccccc3)o2)cc1,,"mouse, plasma","oral, 25 mg/kg, DGAT formulation",163 ng·h/mL
O=C(Nc1c(Cl)c[n+]([O-])cc1Cl)c1ccc(OC(F)F)c(OCC2CC2)c1,,db/db mouse,"oral, 3 mg/kg/day, 28 days, steady state, geometric mean",2630 ng·h/mL
COc1ccc2c(c1)c(CC(=O)O)c(C)n2C(=O)c1ccc(Cl)cc1,,"male ICR mouse, kidney","oral, 3 mg/kg, 24 h",37400 ng·h/mL
CN(C)CCCC1(c2ccc(F)cc2)OCc2cc(C#N)ccc21 (racemic),,"CD-1 mouse, pregnant female, gestation day 18, maternal serum","intraperitoneal, 20 mg/kg",2240 ± 79 ng·h/mL
CC[C@H](C)[C@@H]1NC(=O)[C@H](Cc2ccc(O)cc2)NC(=O)[C@@H](N)CSSC[C@@H](C(=O)N2CCC[C@H]2C(=O)N[C@@H](CC(C)C)C(=O)NCC(N)=O)NC(=O)[C@H](CC(N)=O)NC(=O)[C@H](CCC(N)=O)NC1=O,"microdialysis, RIA","male C57BL/6J mouse, amygdala ECF","i.p., 12 µg",61.5 ± 36.9 pg·30 min/sample
Cc1ccc(-c2cc(C(F)(F)F)nn2-c2ccc(S(N)(=O)=O)cc2)cc1,,"male ICR mouse, kidney","oral, 3 mg/kg, 24 h",46300 ng·h/mL
COc1cccc2c1C(=O)c1c(O)c3c(c(O)c1C2=O)C[C@@](O)(C(=O)CO)C[C@@H]3O[C@H]1C[C@H](N)[C@H](O)[C@H](C)O1,,"mouse, E0771 tumour-bearing, liver","intravenous, 92 µmol/kg",2180 µM·h
OC[C@H]1O[C@@H](c2ccc(F)c(Cc3cc4ccccc4s3)c2)[C@H](O)[C@@H](O)[C@@H]1O,,"male ICR mouse, kidney","oral, 3 mg/kg, 24 h",23400 ng·h/mL
Cc1cc(Nc2cc3ncccc3c(N[C@@H]3C[C@H]4CC[C@@H](C3)N4CCC#N)n2)n[nH]1,,"male BALB/c mouse, plasma","oral, 10 mg/kg, 0 to 24 h",0.006 ± 0.002 µM·h

# A few entries again:
SMILES,assay,test system,setting,AUC
COc1cccc2c1C(=O)c1c(O)c3c(c(O)c1C2=O)C[C@@](O)(C(=O)CO)C[C@@H]3O[C@H]1C[C@H](N)[C@H](O)[C@H](C)O1,,"mouse, E0771 tumour-bearing, liver","intravenous, 92 µmol/kg",2180 µM·h
